Results pooled from the literature.
Lines come from different studies, so protocols differ. Numbers after ± are the reported error.
Cell line: HT-29

Substance = CS(=O)(=O)N1CCN(Cc2cc3nc(-c4cccc5[nH]ncc45)nc(N4CCOCC4)c3s2)CC1; assay = cell growth or viability, SRB; setting = 72 h; quantity = GI50; result = 0.25 µM
Substance = CC(C)CN(C(=O)c1cccnc1)c1c2ccccc2c(=O)n2c1[nH]c1ccccc12; assay = cell growth or viability, MTT; quantity = GI50; result = ~20 µM
Substance = CCOc1ccccc1-c1cc(-c2cccc(Br)c2)nc2ncnc(N)c12; assay = cell growth or viability; setting = 50 µM; quantity = inhibition; result = 86.1%
Substance = Cn1c(=O)n(-c2ccc(C(C)(C)C#N)cc2)c2c3cc(-c4cnc5ccccc5c4)ccc3ncc21; assay = cell growth or viability, SRB; setting = 72 h; quantity = GI50; result = 0.014 µM
Substance = COc1ccccc1-c1cc(-c2cccc(Br)c2)nc2nc[nH]c(=O)c12; assay = cell growth or viability; setting = 50 µM; quantity = inhibition; result = 98%
Substance = CSc1ccc(/C=C2/C(C)=C(CC(=O)O)c3cc(F)ccc32)cc1; assay = cell proliferation, tritiated thymidine incorporation; setting = 72 h; quantity = IC50; result = 34 µM
Substance = CCOc1ccccc1-c1cc(-c2cccc(Br)c2)nc(N)c1C#N; assay = cell growth or viability; setting = 50 µM; quantity = inhibition; result = 78.7%
Substance = N=C(N)NCCC[C@H](NC(=O)[C@@H](N)CCC(N)=O)C(=O)N[C@@H](Cc1c[nH]cn1)C(=O)N[C@@H](CCCCN)C(=O)N1CCC[C@H]1C(=O)N[C@@H](CCCNC(=N)N)C(=O)N[C@@H](CCC(=O)O)C(=O)NCC(=O)NCC(=O)NCC(=O)NCC(=O)N[C@@H](CO)C(=O)N[C@@H](CCCCNC(=O)c1ccc(Oc2ccc3c4nc5nc(nc6[nH]c(nc7nc(nc([nH]4)c3c2)-c2ccccc2-7)c2ccccc62)-c2ccccc2-5)cc1)C(N)=O; setting = 2 µM, 10 min plus 6 h, 37 °C; how to read = baseline: 10 min uptake only; quantity = intracellular fluorescence increase; result = 3 fold
Substance = Cc1[nH]c(=O)c(C#N)cc1-c1ccncc1; assay = cell growth or viability; setting = 50 µM; quantity = inhibition; result = 10%
Substance = CCC(C)Oc1nc(N)nc(N)c1C#N (stereo not shown); assay = cell growth or viability, SRB; setting = 100 µM, 72 h; quantity = inhibition; result = 30%
Substance = KSPNPRF (Cy5.5-labelled); assay = flow cytometry; test system = peptide; setting = 5 µM, 4 °C, Cy5.5 labelled; quantity = association rate constant; result = 0.14 min⁻¹
Substance = NS(=O)(=O)c1ccc(Nc2nc(OCC3CCCCC3)c3nc[nH]c3n2)cc1; assay = cell growth, SRB; setting = 72 h; quantity = GI50; result = 13.3 ± 3.4 µM
Substance = Cc1ccc(-n2nc(C(C)(C)C)cc2NC(=O)Nc2ccc(OCCN3CCOCC3)c3ccccc23)cc1; assay = IL-8 secretion; setting = 1 µg/mL, with: IL-1β 1000 ng/mL; quantity = maximum inhibition; result = 33%

Excerpt of the above:
Substance = KSPNPRF (Cy5.5-labelled); assay = flow cytometry; test system = peptide; setting = 5 µM, 4 °C, Cy5.5 labelled; quantity = association rate constant; result = 0.14 min⁻¹
Substance = NS(=O)(=O)c1ccc(Nc2nc(OCC3CCCCC3)c3nc[nH]c3n2)cc1; assay = cell growth, SRB; setting = 72 h; quantity = GI50; result = 13.3 ± 3.4 µM
